# Measurements of several laboratories.
# A part holds a random share of what one study measured. Substitutions count along the parent as printed.

# Block 1
# Target: CCND1, cyclin fold, Cln2 fusion (human)
# Technique: yeast growth competition, sequencing
# Sample: yeast
# Setting: weak parent motif
# Baseline: not given
# Direction: higher = stronger binding
# Parent: RB1 docking peptide (human); PKPLKKLRFDIEG; partner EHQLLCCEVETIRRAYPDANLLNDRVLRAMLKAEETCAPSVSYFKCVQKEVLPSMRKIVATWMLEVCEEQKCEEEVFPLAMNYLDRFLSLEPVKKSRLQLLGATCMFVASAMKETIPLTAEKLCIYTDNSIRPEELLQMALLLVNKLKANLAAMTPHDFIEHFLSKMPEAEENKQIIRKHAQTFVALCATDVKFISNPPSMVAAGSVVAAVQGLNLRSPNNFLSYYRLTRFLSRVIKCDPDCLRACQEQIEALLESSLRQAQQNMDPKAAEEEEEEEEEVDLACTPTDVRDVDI
Substitution,normalised enrichment score
PKPLKKLRFIIEG [D10I],-0.374
PKPLKKERFDIEG [L7E],-0.247
PKPLKKLRFDDEG [I11D],-0.447
PKPLVKLRFDIEG [K5V],-0.0789

# Block 2
# Target: Ras GTPase-activating protein-binding protein 1, RRM domain (G3BP1, Homo sapiens, UniProt Q13283)
# Chain of UniProt Q13283 (whole entry, looked up): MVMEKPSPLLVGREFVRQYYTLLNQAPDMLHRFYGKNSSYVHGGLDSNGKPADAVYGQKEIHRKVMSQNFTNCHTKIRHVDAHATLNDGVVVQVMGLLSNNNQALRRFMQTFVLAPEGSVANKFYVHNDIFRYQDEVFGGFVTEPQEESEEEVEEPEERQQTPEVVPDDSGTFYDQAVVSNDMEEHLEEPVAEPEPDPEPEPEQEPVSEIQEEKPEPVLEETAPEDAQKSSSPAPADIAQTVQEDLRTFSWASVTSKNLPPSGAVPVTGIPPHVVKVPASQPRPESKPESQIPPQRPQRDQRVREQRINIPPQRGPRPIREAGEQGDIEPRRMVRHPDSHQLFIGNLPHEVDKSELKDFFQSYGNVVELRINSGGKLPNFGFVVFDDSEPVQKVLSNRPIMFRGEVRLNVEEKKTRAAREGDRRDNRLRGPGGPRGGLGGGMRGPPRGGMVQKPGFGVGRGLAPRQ
# Technique: RNA Bind-n-Seq
# Form: RNA
# Sample: in vitro
# Tested at: 1 µM
# Setting: whole 134-nt RNA, ends assumed
# Added: 150 mM KCl
# Baseline: input library
# Direction: higher = stronger binding
# Shared flanks, not repeated: GGGAGUUCUACAGUCCGACGAUC … UGGAAUUCUCGGGUGUCAAGG
Oligonucleotide,log2 enrichment
GCAGGAAGUAAAAACAAAUGGAAAUGCUUCGGAUAGUGGCAGGUGUGGGGGUUGCUAAGGAAAGGGUGGGAUGGGAGUGGGUAAAGAGUU,1.69
GUCCUGUGCUACACAUCGUAUGUACCGAAUCGGGCCCCCGGCCCCCGGGCCCCCGGGGAAAGUAUUAUGUUACGCCGUUCGGAUCUGCAC,-0.615
UCCUGUGCUACACAUCGUAUGUACCGAAUCGGUUUUUUGGGGUUUUUUGGUUUUUUGGGAAAGUAUUAUGUUACGCCGUUCGGAUCUGCA,-0.138
UCCUGUGCUACACAUCGUAUGUACCGAAUCAAACCCCCCCAAACCCAAAUUUUUUUAAAAAAGUAUUAUGUUACGCCGUUCGGAUCUGCA,-0.299
ACCAUGCAGGUGGGCAUCUUUGGGAAGUGGGGGAAGGGGGGGAUAGGGAGGGGGGUAACACUUUGGGAACAGGUGGUCCCAGGUCGUUUC,-0.612
GUCCUGUGCUACACAUCGUAUGUACCGAAUCGGGUUUUUUUGGGUUUUUUUGGGAGGGAAAGUAUUAUGUUACGCCGUUCGGAUCUGCAC,0.0925

# Block 3
# Molecule: PhoQ, residues 284 288 289 292 302 303 GANMMA
# Technique: Sort-seq
# Measured: YFP reporter
# Sample: E. coli
# Setting: PhoQ-PhoP variant library
# Added: 10 µM Mg2+
# Baseline: high Mg2+ state
# Direction: higher = stronger signaling
target,fold induction
"PhoP, residues 12 14 15 18 19 TQALL (Escherichia coli, UniProt P23836)",6.76
"PhoP, residues 12 14 15 18 19 NYFRM (Escherichia coli, UniProt P23836)",3.93
"PhoP, residues 12 14 15 18 19 QYFSL (Escherichia coli, UniProt P23836)",2.76

# Block 4
# Target: Histone acetyltransferase KAT6A, winged helix 1, GST fusion (KAT6A, Homo sapiens, UniProt Q92794, residues 1-85)
# Technique: protein binding microarray
# Form: double-stranded DNA, one strand shown
# Sample: in vitro
# Tested at: not given
# Setting: 8-mer, flanks averaged, mean of 2 arrays, mostly near background
# Baseline: not given
# Direction: higher = stronger binding
# Target sequence (chain): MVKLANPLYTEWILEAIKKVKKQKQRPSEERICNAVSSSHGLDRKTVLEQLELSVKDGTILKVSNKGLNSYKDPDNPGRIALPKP
Oligonucleotide,E-score
AAGCCAAG,-0.213
GTGTTACA,-0.12
AGCAAACG,-0.12
AGATTGCG,0.0859
AGGCGTCC,0.0699
GAGCTGCA,-0.122
AGAGTCCC,-0.044

# A few entries again (block 3):
target,fold induction
"PhoP, residues 12 14 15 18 19 QYFSL (Escherichia coli, UniProt P23836)",2.76
